Experimental data collected from several papers.
Numbered parts are unrelated; each lists some results of a single study. Values joined by “and” are separate records of one study, mostly repeats; a detail may differ.
UniProt Q8NFD2, sequence (whole entry, looked up): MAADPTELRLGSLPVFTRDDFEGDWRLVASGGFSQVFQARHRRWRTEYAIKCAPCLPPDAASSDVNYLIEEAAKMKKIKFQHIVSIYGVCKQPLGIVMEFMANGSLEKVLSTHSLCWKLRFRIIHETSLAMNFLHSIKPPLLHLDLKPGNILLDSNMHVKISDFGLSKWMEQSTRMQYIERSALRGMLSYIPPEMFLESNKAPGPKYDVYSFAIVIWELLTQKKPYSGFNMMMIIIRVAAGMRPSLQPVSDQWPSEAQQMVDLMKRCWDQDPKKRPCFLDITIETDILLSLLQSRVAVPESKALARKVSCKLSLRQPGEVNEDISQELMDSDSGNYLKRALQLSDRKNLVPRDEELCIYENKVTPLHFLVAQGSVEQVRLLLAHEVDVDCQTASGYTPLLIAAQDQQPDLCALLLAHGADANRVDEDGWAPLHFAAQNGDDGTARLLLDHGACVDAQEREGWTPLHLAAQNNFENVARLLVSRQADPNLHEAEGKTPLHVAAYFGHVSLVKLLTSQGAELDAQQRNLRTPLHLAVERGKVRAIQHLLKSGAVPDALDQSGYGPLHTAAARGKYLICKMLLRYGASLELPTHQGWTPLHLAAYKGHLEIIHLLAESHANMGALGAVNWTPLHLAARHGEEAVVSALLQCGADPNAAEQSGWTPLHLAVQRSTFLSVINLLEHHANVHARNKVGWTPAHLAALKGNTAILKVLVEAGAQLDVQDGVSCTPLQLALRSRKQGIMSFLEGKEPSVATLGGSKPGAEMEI
UniProt P54764, sequence (whole entry, looked up): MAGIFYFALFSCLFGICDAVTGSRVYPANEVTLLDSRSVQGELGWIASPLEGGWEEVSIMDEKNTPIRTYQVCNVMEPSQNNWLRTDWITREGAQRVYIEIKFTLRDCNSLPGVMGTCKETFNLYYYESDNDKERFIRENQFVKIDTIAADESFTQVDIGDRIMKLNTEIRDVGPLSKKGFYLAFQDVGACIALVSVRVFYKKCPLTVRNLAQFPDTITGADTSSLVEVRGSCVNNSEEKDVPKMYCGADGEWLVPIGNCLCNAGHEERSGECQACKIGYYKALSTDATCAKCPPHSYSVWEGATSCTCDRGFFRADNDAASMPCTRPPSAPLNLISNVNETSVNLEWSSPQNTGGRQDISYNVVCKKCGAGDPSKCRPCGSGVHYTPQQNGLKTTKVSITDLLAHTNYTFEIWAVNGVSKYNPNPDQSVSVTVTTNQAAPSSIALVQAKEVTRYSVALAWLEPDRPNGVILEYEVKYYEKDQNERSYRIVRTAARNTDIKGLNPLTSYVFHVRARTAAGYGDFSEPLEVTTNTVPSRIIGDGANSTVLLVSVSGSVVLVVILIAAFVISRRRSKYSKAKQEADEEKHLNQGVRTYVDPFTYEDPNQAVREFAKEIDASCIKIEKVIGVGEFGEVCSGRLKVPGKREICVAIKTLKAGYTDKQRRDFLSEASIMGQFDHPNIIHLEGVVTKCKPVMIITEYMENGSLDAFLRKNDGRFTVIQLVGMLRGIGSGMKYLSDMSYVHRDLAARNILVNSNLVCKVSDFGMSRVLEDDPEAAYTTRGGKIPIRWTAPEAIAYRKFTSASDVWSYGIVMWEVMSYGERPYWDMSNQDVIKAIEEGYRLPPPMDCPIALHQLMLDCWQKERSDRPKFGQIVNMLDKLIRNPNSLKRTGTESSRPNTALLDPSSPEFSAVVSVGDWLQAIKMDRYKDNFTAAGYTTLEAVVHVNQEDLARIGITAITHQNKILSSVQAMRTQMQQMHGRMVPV
UniProt P42336, sequence (whole entry, unmodified, looked up): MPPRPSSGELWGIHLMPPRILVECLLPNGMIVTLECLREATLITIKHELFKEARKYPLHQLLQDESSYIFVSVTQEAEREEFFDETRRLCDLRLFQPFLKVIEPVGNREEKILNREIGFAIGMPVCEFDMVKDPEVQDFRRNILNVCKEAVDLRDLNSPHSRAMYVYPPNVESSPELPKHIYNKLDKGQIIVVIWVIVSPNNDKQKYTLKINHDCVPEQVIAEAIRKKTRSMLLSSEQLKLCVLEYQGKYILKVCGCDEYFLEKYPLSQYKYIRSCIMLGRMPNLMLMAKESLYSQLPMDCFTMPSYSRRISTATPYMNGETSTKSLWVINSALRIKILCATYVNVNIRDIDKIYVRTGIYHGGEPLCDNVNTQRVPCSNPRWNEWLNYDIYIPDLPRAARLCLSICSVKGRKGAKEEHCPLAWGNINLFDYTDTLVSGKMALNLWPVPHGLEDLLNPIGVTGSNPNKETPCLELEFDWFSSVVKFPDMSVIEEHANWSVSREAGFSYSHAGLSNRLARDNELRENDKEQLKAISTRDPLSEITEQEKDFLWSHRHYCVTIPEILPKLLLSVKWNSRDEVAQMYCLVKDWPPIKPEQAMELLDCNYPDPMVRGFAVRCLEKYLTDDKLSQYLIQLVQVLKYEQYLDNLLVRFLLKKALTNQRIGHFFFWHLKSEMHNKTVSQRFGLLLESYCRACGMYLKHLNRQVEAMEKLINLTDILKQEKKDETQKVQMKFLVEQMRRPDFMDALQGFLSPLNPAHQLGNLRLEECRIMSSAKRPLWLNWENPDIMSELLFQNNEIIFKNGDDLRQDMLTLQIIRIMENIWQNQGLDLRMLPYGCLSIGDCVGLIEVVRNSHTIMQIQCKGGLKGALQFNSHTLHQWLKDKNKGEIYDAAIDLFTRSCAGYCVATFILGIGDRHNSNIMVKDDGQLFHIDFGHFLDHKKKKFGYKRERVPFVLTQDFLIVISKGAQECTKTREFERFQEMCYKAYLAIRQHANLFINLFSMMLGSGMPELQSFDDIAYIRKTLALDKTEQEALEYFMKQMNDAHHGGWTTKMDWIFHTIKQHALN
UniProt Q96L34, sequence (whole entry, looked up): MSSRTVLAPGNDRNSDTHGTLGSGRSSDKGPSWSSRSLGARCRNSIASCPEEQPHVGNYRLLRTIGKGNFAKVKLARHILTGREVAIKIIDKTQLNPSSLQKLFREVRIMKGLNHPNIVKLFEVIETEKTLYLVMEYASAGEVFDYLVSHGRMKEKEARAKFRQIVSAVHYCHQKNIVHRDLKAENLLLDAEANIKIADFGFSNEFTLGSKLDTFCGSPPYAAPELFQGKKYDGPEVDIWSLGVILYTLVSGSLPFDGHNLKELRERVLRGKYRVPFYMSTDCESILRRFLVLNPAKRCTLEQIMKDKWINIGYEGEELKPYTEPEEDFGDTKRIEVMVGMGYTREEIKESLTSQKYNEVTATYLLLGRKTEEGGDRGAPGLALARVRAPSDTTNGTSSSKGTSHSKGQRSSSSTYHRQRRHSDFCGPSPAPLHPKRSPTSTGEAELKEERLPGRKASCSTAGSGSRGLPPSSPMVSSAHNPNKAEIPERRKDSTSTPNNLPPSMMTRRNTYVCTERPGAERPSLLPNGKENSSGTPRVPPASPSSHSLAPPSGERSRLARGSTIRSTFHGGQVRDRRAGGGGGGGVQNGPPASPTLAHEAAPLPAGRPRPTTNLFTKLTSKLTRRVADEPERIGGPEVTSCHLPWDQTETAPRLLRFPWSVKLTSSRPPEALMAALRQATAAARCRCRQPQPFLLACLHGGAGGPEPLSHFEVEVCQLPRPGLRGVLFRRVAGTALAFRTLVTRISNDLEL
UniProt Q8IYT8, sequence (whole entry, looked up): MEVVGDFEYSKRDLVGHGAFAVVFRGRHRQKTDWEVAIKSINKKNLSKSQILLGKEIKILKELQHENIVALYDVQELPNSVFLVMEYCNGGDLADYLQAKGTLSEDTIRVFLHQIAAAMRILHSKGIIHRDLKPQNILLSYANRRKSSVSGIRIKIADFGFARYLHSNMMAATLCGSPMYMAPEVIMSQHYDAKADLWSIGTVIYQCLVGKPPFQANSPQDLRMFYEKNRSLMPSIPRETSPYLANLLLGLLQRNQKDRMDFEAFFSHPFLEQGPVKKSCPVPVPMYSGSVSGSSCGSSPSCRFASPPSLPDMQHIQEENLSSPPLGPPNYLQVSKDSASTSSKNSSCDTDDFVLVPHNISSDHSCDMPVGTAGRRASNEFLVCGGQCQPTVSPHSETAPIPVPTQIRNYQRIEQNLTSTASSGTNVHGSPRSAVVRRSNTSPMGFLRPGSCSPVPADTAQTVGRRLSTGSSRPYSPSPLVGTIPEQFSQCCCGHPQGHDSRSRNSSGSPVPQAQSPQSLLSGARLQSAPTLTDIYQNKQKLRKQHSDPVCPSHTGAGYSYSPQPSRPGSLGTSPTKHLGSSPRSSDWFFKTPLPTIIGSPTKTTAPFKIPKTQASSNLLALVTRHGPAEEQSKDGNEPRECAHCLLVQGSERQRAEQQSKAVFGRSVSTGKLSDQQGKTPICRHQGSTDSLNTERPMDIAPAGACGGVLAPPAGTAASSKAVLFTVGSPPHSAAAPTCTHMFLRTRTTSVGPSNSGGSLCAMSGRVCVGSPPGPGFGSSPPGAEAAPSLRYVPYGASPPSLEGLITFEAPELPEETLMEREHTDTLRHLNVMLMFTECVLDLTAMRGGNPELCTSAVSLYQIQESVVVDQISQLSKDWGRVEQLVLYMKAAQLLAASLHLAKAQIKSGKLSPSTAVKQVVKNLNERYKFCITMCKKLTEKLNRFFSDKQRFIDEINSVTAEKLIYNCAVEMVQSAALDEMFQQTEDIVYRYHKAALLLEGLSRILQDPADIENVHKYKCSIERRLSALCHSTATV
UniProt O43293, sequence (whole entry, looked up): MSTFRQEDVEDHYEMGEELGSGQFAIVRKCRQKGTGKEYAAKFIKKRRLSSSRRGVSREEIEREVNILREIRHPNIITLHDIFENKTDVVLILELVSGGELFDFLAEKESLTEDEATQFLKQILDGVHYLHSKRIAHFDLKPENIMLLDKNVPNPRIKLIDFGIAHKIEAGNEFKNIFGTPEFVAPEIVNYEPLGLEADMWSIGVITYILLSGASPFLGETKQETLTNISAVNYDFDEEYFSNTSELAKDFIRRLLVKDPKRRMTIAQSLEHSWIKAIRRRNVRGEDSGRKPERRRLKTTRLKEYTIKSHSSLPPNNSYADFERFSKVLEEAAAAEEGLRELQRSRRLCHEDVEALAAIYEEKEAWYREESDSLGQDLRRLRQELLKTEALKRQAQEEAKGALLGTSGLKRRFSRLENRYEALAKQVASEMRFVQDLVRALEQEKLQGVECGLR

Study 1
Organism: Arabidopsis thaliana
Strain: Col-0
Concentration: 3.125 µg/mL
Notes: seed germination
SMILES | root length
COc1ccc2c(c1)OC(O)(C(=O)O)C(=O)N2Cc1ccccc1 (centres unmarked) | 1.22 cm
O=C(O)C1(O)Oc2cc(Cl)ccc2N(Cc2ccccc2)C1=O (centres unmarked) | 1.23 cm
CN1C(=O)C(O)(C(=O)O)Oc2cc(F)ccc21 (centres unmarked) | 1.1 cm
O=C(O)C1(O)Oc2ccccc2N(Cc2ccccc2)C1=O (centres unmarked) | 1.23 cm

Study 2
SMILES: CC[C@@]1(c2cccc(-c3c(F)cncc3OC)c2)C2=C(Nc3n[nH]cc31)[C@H](F)C(C)(C)CC2=O (single isomer, unassigned)
Concentration: 1 µM
target | effect on | technique | relative to | remaining binding [%]
ANKK1 (Homo sapiens, UniProt Q8NFD2) | kinase binding | KINOMEscan | DMSO control | 68
PLK2 (Homo sapiens, UniProt Q9NYY3) | kinase binding | KINOMEscan | DMSO control | 60
CDK8 (Homo sapiens, UniProt P49336) | kinase binding | KINOMEscan | DMSO control | 100
ALK (Homo sapiens, UniProt Q9UM73, L1196M) | kinase binding | KINOMEscan | DMSO control | 100
DAPK3 (Homo sapiens, UniProt O43293) | kinase binding | KINOMEscan | DMSO control | 90
Ribosomal protein S6 kinase alpha-1, C-terminal kinase domain (RPS6KA1, Homo sapiens, UniProt Q15418) | binding | competition with immobilised ligand | – | 100
PIK3CA (Homo sapiens, UniProt P42336, H1047L) | kinase binding | KINOMEscan | DMSO control | 96
PRKCE (Homo sapiens, UniProt Q02156) | binding | competition with immobilised ligand | – | 69
ULK2 (Homo sapiens, UniProt Q8IYT8) | binding | competition with immobilised ligand | – | 72
KIT (Homo sapiens, UniProt P10721, D816V) | kinase binding | KINOMEscan | DMSO control | 100
EPHA4 (Homo sapiens, UniProt P54764) | binding | competition with immobilised ligand | – | 100
MARK4 (Homo sapiens, UniProt Q96L34) | kinase binding | KINOMEscan | DMSO control | 89

Study 3
Structure (SMILES): Cc1ncsc1-c1ccc(C(CO)NC(=O)C2CC(O)CN2C(=O)C(C(C)C)n2cc(-c3ccc(COc4c(-c5c(C)c(F)cc6[nH]ncc56)c(C5CC5)cc5c(N6CC7CC6CN7)nc(OC6CCOCC6)nc45)cc3)nn2)cc1 (centres unmarked)
Technique: qRT-PCR
Host: mouse, PK-59 xenograft
Matrix: tumour
Notes: unit not given
item | route | dose | time | relative to | mRNA level
MYC | – | 10 mg/kg | 6 h | vehicle | 0.55 and 0.386 and 0.597
SPRY4 | – | 10 mg/kg | 144 h | vehicle | 0.452 and 0.46 and 0.893
FOSL1 | – | 10 mg/kg | 72 h | vehicle | 0.149 and 0.134 and 0.147
DUSP6 | – | 10 mg/kg | 144 h | vehicle | 0.422 and 0.581 and 0.332
DUSP6 | intravenous | 10 mg/kg | 24 h | vehicle, same time point | 0.0147 and 0.0209 and 0.0181
ETV4 | intravenous | 10 mg/kg | 6 h | vehicle, same time point | 0.0126 and 0.0111 and 0.00691
DUSP6 | intravenous | 30 mg/kg | 48 h | vehicle, same time point | 0.0125 and 0.0171

Single results of other studies
Compound | tested on | system | conditions | measurement | result
CC(C)OC(=O)[C@H](CCC(=O)C=[N+]=[N-])NC(=O)[C@H](Cc1c[nH]c2ccccc12)NC(=O)CN1CCN(C)CC1 | P493B lymphoma cells | P493B cells in human plasma | concentration not given, tumour cell fraction of partition | DON concentration | 1.64 nmol/g
CC(=O)N[C@@H](Cc1c[nH]c2ccccc12)C(=O)N[C@@H](CCC(=O)C=[N+]=[N-])C(=O)OC(C)C | – | mouse, EL4 tumour-bearing, EL4 tumour | subcutaneous, dose not given | FGAR level | 667 nmol/g
[2H]C([2H])([2H])OC(=O)[C@H](CCC(=O)C=[N+]=[N-])NC(=O)[C@H](Cc1c[nH]c2ccccc12)NC(C)=O | P493B lymphoma cells | P493B cells in human plasma | concentration not given, tumour cell fraction of partition | DON concentration | 2.23 nmol/g

For quick reference, copied from above (study 2):
target | effect on | technique | relative to | remaining binding [%]
PLK2 (Homo sapiens, UniProt Q9NYY3) | kinase binding | KINOMEscan | DMSO control | 60
CDK8 (Homo sapiens, UniProt P49336) | kinase binding | KINOMEscan | DMSO control | 100
ALK (Homo sapiens, UniProt Q9UM73, L1196M) | kinase binding | KINOMEscan | DMSO control | 100
DAPK3 (Homo sapiens, UniProt O43293) | kinase binding | KINOMEscan | DMSO control | 90
